Assay results collected from several papers.
Each line is one published result; not all experiments were run side by side. ± marks the error that the study gave.
Medium: plasma

Cc1cnc(Nc2cc(C)c(C)c(C)c2)nc1Nc1ccc2oc(=O)[nH]c2c1
terminal half-life (rat; intravenous, 1.0 mg/kg): 3.9 h

CNC(=O)N[C@]1(C)CCC[C@@]2(C)C3CC[C@@]4(C)C[C@]3(CCC21)CC4=O (single isomer, unassigned)
terminal volume of distribution (Sprague-Dawley rat, male; intravenous, 2 mg/kg): 1.59 ± 0.45 L

CO[C@@H]1[C@H](OC(=O)N[C@H]2CC[C@H](N)CC2)CC[C@]2(CO2)[C@H]1[C@@]1(C)O[C@@H]1CC=C(C)C
terminal half-life (Sprague-Dawley rat, male; intravenous bolus): 0.167 to 0.25 h

Cc1cc(O)c2c(c1)C(=O)c1cc(O)cc(O)c1C2=O.Cc1cc(O)c2c(c1)C(=O)c1cc(O)cc(O)c1C2=O.Cc1nc(C)c(C)nc1C
terminal half-life (Sprague Dawley rat; oral, 100 mg/kg, alone or as equimolar cocrystal): 3.7 ± 2.19 h

CC(C)C[C@@H]1NC(=O)CNC(=O)[C@H](CC(N)=O)NC(=O)[C@H](CCCNC(=N)N)NC(=O)[C@H]([C@@H](C)O)NC(=O)[C@@H]2CSSC[C@@H]3NC(=O)[C@H]([C@@H](C)O)NC(=O)CNC(=O)CNC(=O)[C@H](C(C)C)NC(=O)[C@@H]4CSSC[C@H](NC(=O)[C@H]([C@@H](C)O)NC(=O)[C@H](CSSC[C@H](NC(=O)[C@H](C(C)C)NC(=O)[C@@H]5CCCN5C1=O)C(=O)NCC(=O)N[C@@H](CCC(=O)O)C(=O)N[C@@H]([C@@H](C)O)C(=O)N4)NC(=O)CNC(=O)[C@@H]1CCCN1C(=O)[C@H]([C@@H](C)O)NC(=O)[C@H](CC(N)=O)NC3=O)C(=O)N[C@@H](CO)C(=O)N[C@@H](Cc1c[nH]c3ccccc13)C(=O)N1CCC[C@H]1C(=O)N[C@@H](C(C)C)C(=O)N2
terminal half-life (Sprague Dawley rat, male; intravenous infusion, 1 mg/kg, 10 min infusion): 1.88 h

COC(=O)C(CSC1CC(=O)N(CCC(=O)O)C1=O)NC(=O)CCC(NC(=O)c1ccc(NCc2cnc3nc(N)nc(N)c3n2)cc1)C(=O)O (centres unmarked)
terminal half-life (female Lewis rats; subcutaneous, 500 nmol/kg of parent drug): 1 h

CC1(C)C2CCC1(C)C(OC(=O)/C=C/c1ccc(O)c(O)c1)C2 (centres unmarked)
terminal half-life (Sprague-Dawley rat; oral gavage, 30 mg/kg): 3.37 ± 0.24 h

COc1cc(NC(C)=O)c2c(c1O)-c1c(OC)c(OC)cc3c1C(C2)N(C)CC3 (centres unmarked)
terminal slope (Wistar rat male; oral, 200 mg/kg): 0.367 ± 0.092

Some of these lines once more:
CO[C@@H]1[C@H](OC(=O)N[C@H]2CC[C@H](N)CC2)CC[C@]2(CO2)[C@H]1[C@@]1(C)O[C@@H]1CC=C(C)C
terminal half-life (Sprague-Dawley rat, male; intravenous bolus): 0.167 to 0.25 h
